{"data": "Experimental data pooled from the literature", "note": "Parts stem from different laboratories: compare values within a part only. Positions count from the first letter of the parent shown."}
{"data": "Series 1", "target": "CCNE2, cyclin fold, Cln2 fusion (human)", "method": "yeast growth competition, sequencing", "sample": "yeast", "notes": "weak parent motif", "baseline": "not given", "reading": "higher = stronger binding", "parent": "CDKN1C docking peptide (human); TSACRSLFGPVDH; partner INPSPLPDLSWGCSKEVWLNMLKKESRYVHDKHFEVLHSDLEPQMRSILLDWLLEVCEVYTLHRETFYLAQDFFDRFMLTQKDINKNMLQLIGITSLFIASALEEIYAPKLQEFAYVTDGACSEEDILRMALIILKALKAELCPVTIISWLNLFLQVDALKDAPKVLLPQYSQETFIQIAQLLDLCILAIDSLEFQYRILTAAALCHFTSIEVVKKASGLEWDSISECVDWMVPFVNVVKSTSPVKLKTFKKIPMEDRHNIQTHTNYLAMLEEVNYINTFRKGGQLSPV"}
{"Variant": "H13A", "normalised enrichment score": 0.74}
{"Variant": "R5K F8L", "normalised enrichment score": -0.165}
{"Variant": "R5K", "normalised enrichment score": 0.465}
{"Variant": "F8A", "normalised enrichment score": 0.137}
{"Variant": "V11A", "normalised enrichment score": 1.09}
{"Variant": "T1A", "normalised enrichment score": 0.631}
{"Variant": "R5A", "normalised enrichment score": -0.424}
{"Variant": "R5A L7A", "normalised enrichment score": -0.0928}
{"Variant": "P10A", "normalised enrichment score": 0.842}
{"data": "Series 2", "target": "NFIL3, bZIP domain (human)", "method": "DHFR protein complementation", "sample": "yeast", "notes": "single substitutions, most at no-binding floor", "baseline": "wild-type JUN-FOS pair", "reading": "higher = stronger binding", "parent": "JUN, bZIP domain (human); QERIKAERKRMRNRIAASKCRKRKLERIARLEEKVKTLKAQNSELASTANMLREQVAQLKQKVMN; partner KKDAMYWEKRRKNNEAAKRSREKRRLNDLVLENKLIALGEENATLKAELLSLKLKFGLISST"}
{"Variant": "N42E", "binding fitness": "-1.41 natural log"}
{"Variant": "T37E", "binding fitness": "-1.33 natural log"}
{"Variant": "E54P", "binding fitness": "-1.41 natural log"}
{"Variant": "Q55E", "binding fitness": "-1.51 natural log"}
{"Variant": "L45D", "binding fitness": "-1.48 natural log"}
{"Variant": "S43E", "binding fitness": "-1.25 natural log"}
{"Variant": "L52W", "binding fitness": "-1.54 natural log"}
{"Variant": "K34P", "binding fitness": "-1.46 natural log"}
{"Variant": "E44H", "binding fitness": "-1.54 natural log"}
{"Variant": "Q41G", "binding fitness": "-1.41 natural log"}
{"Variant": "T48M", "binding fitness": "-1.49 natural log"}
{"Variant": "M51H", "binding fitness": "-1.47 natural log"}
{"Variant": "L38V", "binding fitness": "-1.45 natural log"}
{"Variant": "K36T", "binding fitness": "-1.42 natural log"}
{"Variant": "K36S", "binding fitness": "-1.15 natural log"}
{"Variant": "A46N", "binding fitness": "-1.44 natural log"}
{"Variant": "A40R", "binding fitness": "-1.51 natural log"}
{"Variant": "E32G", "binding fitness": "-1.42 natural log"}
{"data": "Series 3", "target": "RNA binding protein fox-1 homolog 2, RRM domain, GST-SBP tag (RBFOX2, Homo sapiens, UniProt O43251-10, residues 100-194)", "method": "RNA Bind-n-Seq", "molecule type": "RNA", "sample": "in vitro", "concentration": "365 nM", "notes": "natural RNA segment, single round, ends assumed", "baseline": "no-protein control", "reading": "higher = stronger binding", "all sequences stand within": "GGGAGUUCUACAGUCCGACGAUC … UGGAAUUCUCGGGUGCCAA", "Residues (chain)": "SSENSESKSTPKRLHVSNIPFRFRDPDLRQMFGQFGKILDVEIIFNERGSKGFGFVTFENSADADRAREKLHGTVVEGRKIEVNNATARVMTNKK"}
{"Sequence": "ACUUAUAGCUAUAUUUUACUACAAAAUUUGUGUAUAAAGAUAUAUUUAAGUGUUUUAGAUAAAUUUAAGUUACUCCAUAUGAAAUGUUUAAUUUCAGCUACUGUGAAUUC", "RBNS enrichment (R)": 0.601}
{"Sequence": "AAGCCAUAGCCAGAAAGGACAGAAUCUCUCCCCCACUCCCUUGCCCCAUAACCAAACAUAAGCUAGCUAGUCUUGUCUAAUAGAUGGGAUUUACUAUAGGUGAAGAUAGC", "RBNS enrichment (R)": 0.481}
{"Sequence": "CUUCUUAUCCCCAUGCACAGAAACGCUCAGGGUCCCCACGUGCCUGUUGUCCUCCCCUCUAGUCCUUUGUUCCCUUUCUGAGCAUGUGGCCCCUCCCCCGGCUGUGAGGG", "RBNS enrichment (R)": 6.22}
{"Sequence": "AAUUUUUGUUUGAUAUAAGUUAGCUUGUUAGCAUAUGCCCUAGAGGGCCUCCAUCCCUGUAUUCUAAUGUUUUUACUCAAAGCUCUAGCCUUUAGGAUAGGUGAAUAUGU", "RBNS enrichment (R)": 0.329}
{"Sequence": "UGGGGUGGGAGUUUUGCUCUCUGUCAGGUGUGAUAAAAUGUUGAACCCUCCCCACCACCACUUUUUUUUUUUUAAACCAGGGAUGUCUGUUGAAAUAAAACAUUCAGUCU", "RBNS enrichment (R)": 0.497}
{"Sequence": "AUUUCCUAUAAUGUUAUAUCAUAGGAAGCCCUCACAGAGACACUAACACAGCUAAAGAUCUUCUGAUAUUAUCAGCAAGGGAUGCAAGGACUUUAUUGGAAUCUGGAGAG", "RBNS enrichment (R)": 0.256}
{"Sequence": "UGUCAAUAAGCUUGCAUUAAGCCACCUGCUUUGUAAGUGGAUUGAUUAAUAAAUAACUUAUAUUUCUUUGUCUUUGUGUUUCAUAAUUAGUGUUUAUAAAAUGGUUUACA", "RBNS enrichment (R)": 1.5}
{"Sequence": "UAAUCCCCUGGGUAUUACAUAUUCUGCAAGCCCUGUUAGUGGGGAGAUGGUAGUGGCAAUAGCAGCGAUAGUUGCGUCAGUGCUAACUGCUGCUGCUGCCCGUUCUGUUG", "RBNS enrichment (R)": 0.242}
{"Sequence": "CAAUACUGAGAUUGCAAAACUGAAGCUUGACAAGUGUGUGGAAGACCCUGGCUCAAGUUCCAGCACUGGAAAGACCAAAGUGCAAACGUGCAUGGGAGGAGUGAGGGUAA", "RBNS enrichment (R)": 5.6}
{"Sequence": "AUGGAGAUGCUCAAGGCCAGCAAGCCCCUCAGGCCAGCACUUCGCUUGCAGAAGCCAUCCAUUCACUCCUGGGGUGCAGGGCACGCAAGAGAGCUUCCCAUUGCUUCUGC", "RBNS enrichment (R)": 0.902}
{"Sequence": "CUGCCUUCUUUGUUGGGGGGAGAAGGGGGAAGGAAAUGGAACAAGUUGUGUUUGUGUUAGCAUGUGGGUGAUGUAAACUACAAAUUGGGAGCUGUUCCGACCCCCGCUCC", "RBNS enrichment (R)": 19.2}
{"Sequence": "CUGGCUUCUGCCUCACCUGCAACAGGUCUGUCUAUACAUCUGUCUGGGUUGCUGUCAUUUCUGUUUUUCUCUUGCAGUGACAGAUCAGAUCAAGGCGGUAAAUCAAGUGG", "RBNS enrichment (R)": 0.328}
{"data": "Series 4", "target": "ABI1, truncated, D143A, DHFR fusion (Arabidopsis thaliana)", "method": "DHFR PCA, deep sequencing", "sample": "yeast", "notes": "methotrexate growth selection, single substitutions", "with": "(+)-ABA 1.4 µM", "baseline": "wild-type fitted maximum", "reading": "higher = stronger binding", "parent": "PYL1, truncated, DHFR fusion (Arabidopsis thaliana); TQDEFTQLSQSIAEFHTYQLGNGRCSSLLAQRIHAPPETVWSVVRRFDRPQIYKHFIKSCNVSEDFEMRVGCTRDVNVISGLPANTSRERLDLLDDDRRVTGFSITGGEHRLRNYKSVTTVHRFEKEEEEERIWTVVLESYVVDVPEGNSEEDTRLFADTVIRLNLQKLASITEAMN; partner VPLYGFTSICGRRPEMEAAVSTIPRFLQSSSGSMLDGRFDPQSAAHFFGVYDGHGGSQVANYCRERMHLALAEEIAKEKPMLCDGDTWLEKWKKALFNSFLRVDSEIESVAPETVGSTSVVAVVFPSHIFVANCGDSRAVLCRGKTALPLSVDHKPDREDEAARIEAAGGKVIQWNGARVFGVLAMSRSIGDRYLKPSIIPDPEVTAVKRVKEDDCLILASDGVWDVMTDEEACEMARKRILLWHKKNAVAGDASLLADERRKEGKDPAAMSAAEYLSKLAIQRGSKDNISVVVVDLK"}
{"Variant": "Y141A", "relative binding score [%]": -9.24}
{"Variant": "F5V", "relative binding score [%]": 59.8}
{"Variant": "Q10T", "relative binding score [%]": 73.3}
{"Variant": "S26E", "relative binding score [%]": -12.9}
{"Variant": "Y18I", "relative binding score [%]": -11.4}
{"Variant": "G81N", "relative binding score [%]": 14.5}
{"Variant": "S171W", "relative binding score [%]": 22.7}
{"Variant": "M176C", "relative binding score [%]": 29.3}
{"Variant": "Q31T", "relative binding score [%]": 0.789}
{"Variant": "I79T", "relative binding score [%]": 41.5}
{"Variant": "P37H", "relative binding score [%]": -8.41}
{"Variant": "R69W", "relative binding score [%]": 5.47}
{"Variant": "S42R", "relative binding score [%]": 42.5}
{"Variant": "H110L", "relative binding score [%]": 8.65}
{"Variant": "L93T", "relative binding score [%]": 38.3}
{"Variant": "S80M", "relative binding score [%]": 18.8}
{"Variant": "T86I", "relative binding score [%]": 29.5}
{"Variant": "R49F", "relative binding score [%]": 6.25}
{"Variant": "E147T", "relative binding score [%]": 32}
{"data": "Series 5", "target": "RING finger protein unkempt homolog, zinc fingers 1-6, GST-SBP tag (UNK, Homo sapiens, UniProt Q9C0B0, residues 30-357)", "method": "RNA Bind-n-Seq", "molecule type": "RNA", "sample": "in vitro", "concentration": "not given", "notes": "RNA with constant flanks, human and mouse sites, ends assumed", "baseline": "input RNA pool", "reading": "higher = stronger binding", "all sequences stand within": "GGGAGUUCUACAGUCCGACGAUC … CAACAGAGGAUUGAGCAUCA", "Target sequence (chain)": "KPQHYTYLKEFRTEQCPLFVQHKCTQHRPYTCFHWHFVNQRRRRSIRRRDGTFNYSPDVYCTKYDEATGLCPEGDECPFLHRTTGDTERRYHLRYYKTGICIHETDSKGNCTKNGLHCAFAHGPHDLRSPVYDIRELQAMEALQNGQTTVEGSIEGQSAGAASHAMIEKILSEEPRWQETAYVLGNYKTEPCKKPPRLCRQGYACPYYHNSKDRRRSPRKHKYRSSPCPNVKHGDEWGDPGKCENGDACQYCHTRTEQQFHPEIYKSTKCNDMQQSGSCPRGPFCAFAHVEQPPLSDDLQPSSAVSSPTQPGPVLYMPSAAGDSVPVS"}
{"Sequence": "AACGGCAGGAAGACCCUUACUACUGUCCAAGGGAUCGCUGAUGAUUACGAUAAAAAGAAACUAGUGAAGGCGUUUAAGAAAAAGUUUGCCUGCAAUGGUACUGUAAUUGAGCAUCCGGAA", "bound/input enrichment [ratio]": 0.125}
{"Sequence": "UGUGGUCUGAUCAGUUAAUUUGUAUGUAGCAGUGUAUGCUCUCAUAUACAAUUACUGACCUAUGCUCUAAAACAUGAAUGCUUUGUUACAGACCCAAGCUGUCCAUUUCUGUGAUGGGUU", "bound/input enrichment [ratio]": 0.0778}
{"Sequence": "CGCCAGCCACUCGCCCCUGGCCUCGCGGGCCGUGUCUCCGGCAUCAUGUGUGGUAUAUUUGCUUACUUAAACUACCAUGUUCCUCGAACGAGACGAGAAAUCCUGGAGACCCUAAUCAAA", "bound/input enrichment [ratio]": 0.144}
{"Sequence": "GACAGAAAGUACCACCUAAAGACAUACAGACAAUGCUGUGUUGGGACUGAGCUGGUAGACUGGAUGAUACAGCAGACAUCCUGUGUUCACUCGCGGACUCAAGCUGUUGGCAUGUGGCAA", "bound/input enrichment [ratio]": 0.206}
{"Sequence": "AAUGCCAGUGUGAUAAUGCAAGUCCCAGAGAGGAUCGUGGUUACAGGAAAUAAUGAAGACAUUUCAUUUUCAAGACCAGCAGAUCUUGACCUUAUCCAGUCCACUCCCUUUAAACCUCUG", "bound/input enrichment [ratio]": 0.166}
{"Sequence": "GCAAAGCAAAGAAUCCAGGAAAGAAUUGCCAGAGAAGAAAUUAAAAAGAAGAUAUUAUAUGAAGGUACCCACCUCGAUCCUGAAAGAAAACACAACGGCAGCAGCAGCAAUUGAACAAUC", "bound/input enrichment [ratio]": 0.741}
{"Sequence": "UUCAAGAAGAAAAGAAUCGUCACGACCCCGCAGACUGUCCUCCGGAUAAACAGCAUUGAGAUUGCUCCGUGUUUGUUGUGAUUACCGAGUUAAUACUUACAAAAGGAUAAAAAUAAACUC", "bound/input enrichment [ratio]": 0.186}
{"Sequence": "UAACGCCGCCGCCCCGGAGCCGCCUUGGAGGUCCCCCUCCCCACUAAGUGCCUCUUUGCAUAGCACCAGUCCCCACCCGCACGCUCUCUGGACCACUACAGCUGGACGGGCAAUGGCGGG", "bound/input enrichment [ratio]": 0.32}
{"Sequence": "AACAUAUUAGAUCUUUGUACAGCAUUGUCUGCUUUGUCAGGAAUACCUGCAGAUAAGAUGAUAGUUACUGAUAUAUACAAUCAUAGAUUUCACAGAAUAUUCGCUAUGGAUGAAAACCUU", "bound/input enrichment [ratio]": 0.994}
{"Sequence": "GGCCGCCGCUGGGGCUAAGAGCAGGGACACCGAGGGUGACUGACCGCUAGAACUCUUCCAGUCGUCCAAACAGCCAUGACCCACUUCAACAAGGGCCCUUCCUACGGGCUCUCCGCCGAA", "bound/input enrichment [ratio]": 0.172}
{"Sequence": "GACCACGUUCUAUCUGUUCAUUUGUCUGGGUAUAGUCACUCCUGGUGAUGAUAUGGGCUGAAAUGUCUCCACGUCUCUUUGUGUCUUGUUGAAAAGAAACCCAAAGGAGUGUUGUGUGGA", "bound/input enrichment [ratio]": 0.238}
